# Results gathered from unrelated publications.
# A part holds a random share of what one study measured. Substitutions count along the parent as printed.

# Set 1 — technique: RNA Bind-n-Seq; form: RNA; medium: in vitro; concentration: not given; relative to: input RNA pool; direction: higher = stronger binding
# Target: RING finger protein unkempt homolog, zinc fingers 1-6, GST-SBP tag (UNK, Homo sapiens, UniProt Q9C0B0, residues 30-357)
# UniProt Q9C0B0, sequence (30-357, looked up): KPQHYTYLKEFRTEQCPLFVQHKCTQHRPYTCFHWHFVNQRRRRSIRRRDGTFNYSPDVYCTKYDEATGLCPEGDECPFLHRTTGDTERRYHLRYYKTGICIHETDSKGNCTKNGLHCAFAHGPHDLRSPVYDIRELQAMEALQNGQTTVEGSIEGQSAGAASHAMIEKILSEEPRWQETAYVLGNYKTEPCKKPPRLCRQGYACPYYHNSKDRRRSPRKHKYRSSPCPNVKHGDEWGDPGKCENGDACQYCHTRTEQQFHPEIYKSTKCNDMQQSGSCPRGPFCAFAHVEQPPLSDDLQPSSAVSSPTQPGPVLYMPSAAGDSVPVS
# Setting: RNA with constant flanks, human and mouse sites, ends assumed
# Constant ends, left off below: GGGAGUUCUACAGUCCGACGAUC … CAACAGAGGAUUGAGCAUCA
Strand,bound/input enrichment [ratio]
GCAAAGCAAAUUUAUGAAGAAUUCAUUCAAACGGAGGCUCCUAAAGAGGUGAAUAUUGACCACUUCACUAAGGACAUCACAAUGAAGAACCUGGUGGAACCUUCCCUGAGCAGCUUUGAC,0.191
ACCACCUACAUCAAUGCCUCAACCUGUACAGUCAGCUUUCAACCGACCAACCCUCCAAUCAUAUUUGACCUUCCAAACCCACAGGGCUCCUAAAGCACUCAGCAUCCCGUUGGAAUGUGA,0.426
GCUUUUGUCUGCUCCCUGCCACGAAAUGUAAGUGAGCACGGCUAAGACUCUUGGACUAAGAUGACCUCUGGGCUUAGUUCACAGGCUAAGCUGUCUUUUGCUUCCCCACUUAAAAAAGUU,0.165
GCAUCGAGGGUUCGCAAAAGGCCACACUGGGGUUGUGUGUGUUUCCUUUGGUAUAUUCUGGAAACAUGGCUACACACACCCUUGCAUCUUCUGCUACAGACUGCUUUUCGAAGCUGUGUA,0.165
GCCUACCUGUAUUCUUAUGUGAUGCCCCAGGCCAUCCGGGACAUGGUGGACGAGUACAUCAACUGUGAGGAUAUCGCCAUGAACUUCCUUGUCUCCCACAUCACACGGAAACCCCCCAUC,0.219
GACCAAACCCAGAACUUUUUUUUUUUUUUUUUUGGUUUUUCAAGACAAGAUUUCUCUGUGUAGCUCUGGCUGUCCUGGAACCCACUGUGUAUAUGACUAGGCUGAACUCCAACUCAGAGA,1.95
UCAUUAAAUUAGGAUAUUUUUAUUAUUUUUAAAGAAAAUGUAUAACUCCAUGCUGUCAGUCAUCCUCAGCAACUCAGGCACUGGCUGCCUCUCCACGUCAGGGCAGGCCCCACUUCCCCU,6.78
CUUCAGUCUGUCUUUGUUCAGAGUUAUCUUGACCAAGGAACACAGAUCUUCUUAAACAACAGCAUUGAGAAAUCUGGCUGGCUAUUUAUCCAACUCUAUCAUUCUUUUGUAUCAUCUGUU,0.116

# Set 2 — technique: DHFR PCA, deep sequencing; medium: yeast; with: (+)-ABA 0 µM; relative to: wild-type fitted maximum; direction: higher = stronger binding
# Target: ABI1, truncated, D143A, DHFR fusion (Arabidopsis thaliana)
# Setting: methotrexate growth selection, single substitutions
# Starting sequence: PYL1, truncated, DHFR fusion (Arabidopsis thaliana); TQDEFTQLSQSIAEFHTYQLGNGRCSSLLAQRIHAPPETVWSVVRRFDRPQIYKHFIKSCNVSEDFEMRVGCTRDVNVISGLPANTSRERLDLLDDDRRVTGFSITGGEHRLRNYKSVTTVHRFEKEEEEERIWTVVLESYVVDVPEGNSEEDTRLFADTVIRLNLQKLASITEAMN
Substitution,relative binding score [%]
T120F,-10.6
N61H,45.7
E151R,11.5
E127P,36.7
L138W,7.01
Y141H,4.53
T135W,-12.7
L169P,1.75
I162M,7.57
I133G,39.1
K126L,19.6
N61F,21.5
K126F,10.5

# Set 3 — technique: RNA Bind-n-Seq; form: RNA; medium: in vitro; concentration: 365 nM; relative to: no-protein control; direction: higher = stronger binding
# Target: RNA binding protein fox-1 homolog 2, RRM domain, GST-SBP tag (RBFOX2, Homo sapiens, UniProt O43251-10, residues 100-194)
# Setting: natural RNA segment, single round, ends assumed
# Constant ends, left off below: GGGAGUUCUACAGUCCGACGAUC … UGGAAUUCUCGGGUGCCAA
# Target sequence (chain): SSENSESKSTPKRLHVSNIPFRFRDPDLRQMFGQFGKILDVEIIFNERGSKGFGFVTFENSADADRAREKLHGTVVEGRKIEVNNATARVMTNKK
Strand,RBNS enrichment (R)
AGAGCAGGAUCAGAUUUCCACAUUGGACAUAAAUAGCAUAUUCAGCAAAAAGGUCUGAAAAGCAAGGGAAUACCAUUAUUUUCGGAUUAGCGGUUUAUUAAGCUCUUCUA,0.494
GUGACAGAACUUGAUUAUUUCAUCUUUUCCCACAAUUGUGCUUUAUUGGAUGUGAUGUUUCUUGCAUUCAUGUAAAUUGGAUGCAAUGUUUUCAAAUAAAUGUAGAUCUU,0.395
UUUCAUCUGUGGCUCUUUGCUAAAAAUCCGUAGAUCUGAGCUGCAGGUAAACGGAAGGGGCGUCGUUGUCUUUAAGGUGAGGCGGCCAAGCACUGCUCCGUAUAUAAGUU,0.303
CAACCUGACCUCCGACUGUCAGUUUCCCUUGACACCAUCUUCAUAGAAAUACCUGACUCCUGUACCACAGUCCAGUUUGUCCCAGUAGCAGGGACACCAAGGCCAAUGGG,0.275
AGCUGGAGGGUCAGGAACUGUUACCUUCUUUCCCCUUGGCAUUAAUAAAUUUAAGUUAAUCCUUUUCACUCUUCCUUUGUUCUAUGUUUGCUCAAACCCAGUGUAUUGAU,1.02
CCUCUUUCACCUUUCCCUAAAGACCCUAAAUCUGAGGAAUCAACAGGGCAGCAGAUCUGUAUAUUUUUUUCUAAGAGAAAAUGUAAAUAAAGGAUUUCUAGAUGAGUGAG,0.351
AGUUCUUCAGUAUAGAAAGUGGAAGUGGUUUAAAUGGCAUAGUACAUAUACAUAUAUAUAUGGCCUUGUAAAACAGAUUUGAGACCUUGUGAAGAAAUGGAUAUGUUAUA,0.386
CAGACUCUGUUCCACUAGUGAAUGAACCAUUUUCUAAACGUUUCCCUUUGACUUUUUUAUUUAUUGAAUUUUCUUGGUUUGGAGAUGGCAGUCCCAAACACCAGAGUCUG,0.838

# Set 4 — technique: protein binding microarray; form: double-stranded DNA, one strand shown; medium: in vitro; concentration: not given; relative to: not given; direction: higher = stronger binding
# Target: Histone acetyltransferase KAT6A, winged helix 2, GST fusion (KAT6A, Homo sapiens, UniProt Q92794, residues 85-181)
# Setting: 8-mer, flanks averaged, mean of 2 arrays, mostly near background
# Residues (chain): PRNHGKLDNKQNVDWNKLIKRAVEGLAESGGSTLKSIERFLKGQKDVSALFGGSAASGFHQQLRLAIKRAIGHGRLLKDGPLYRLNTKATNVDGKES
Strand,E-score
AGAGTCCG,-0.00396
CACATCGC,-0.0879
AAACACCG,0.137
TAACAAGA,-0.0212
TCGAAAGA,0.0906
ATGGAGTA,0.0292
CGCACCGA,0.0275
ATCCCGCA,-0.00504
ATTGCGGA,0.0658
CACCATCC,-0.233
ACTTCATC,-0.11
CGTATAGA,-0.0533
AATACCAA,0.0794
GAATGCTA,-0.0618
CAAACCTG,0.0294
TGAGTAAA,0.0416
AGCTCGAC,0.0555
CGCCTGAG,0.119
ACTGCACC,0.125
CCTTGCCA,-0.00737
GAATTCGC,0.194
AAAACACT,-0.0586
ACACAGAA,0.128
ACTACACT,-0.0144
ACGGTGAG,0.0897

# For quick reference, copied from above (set 4):
Strand,E-score
AGCTCGAC,0.0555
CGCCTGAG,0.119
ACTGCACC,0.125
CCTTGCCA,-0.00737
GAATTCGC,0.194
AAAACACT,-0.0586
ACACAGAA,0.128
ACTACACT,-0.0144
